Measurements pooled from the literature.
Numbered parts are unrelated; each lists some results of a single study. Positions count from the first letter of the parent shown.

Set 1
Target: CCNE1, cyclin fold, Cln2 fusion (human)
Method: yeast growth competition, sequencing
Sample: yeast
Setting: weak parent motif
Reference: not given
Direction: higher = stronger binding
Starting sequence: SGO1 docking peptide (human); PLAKRALKYTDEK
`PLAKRALKYTDAK [E12A]`: “normalised enrichment score” 0.285.
`PLAKRALKYADEK [T10A]` — result for “normalised enrichment score”: 0.598.
For `PLAKRALKYTAEK [D11A]`, “normalised enrichment score” read -0.00444.
`PLAKRALKYTDEA [K13A]` — result for “normalised enrichment score”: 0.226.
`PLAKRALAYTDEK [K8A]` — result for “normalised enrichment score”: 0.52.
`ALAKRALKYTDEK [P1A]`: “normalised enrichment score” 0.286.

Set 2
Target: UBE2W UBC core domain (UniProt Q96B02)
Method: yeast two-hybrid
Sample: yeast
Setting: mostly zero background
Reference: not given
Direction: higher = stronger interaction
B1: NEURL1 RING domain (UniProt O76050); chain VTPGLGQWSDECTICYEHAVDTVIYTCGHMCLCYACGLRLKKALHACCPICRRPIKDIIKT
B2: RNF111 RING domain (UniProt Q6ZNA4); chain EGTEEDTEEKCTICLSILEEGEDVRRLPCMHLFHQVCVDQWLITNKKCPICRVDIEAQLPSE
B3: TRIM13 RING domain (UniProt O60858); chain MELLEEDLTCPICCSLFDDPRVLPCSHNFCKKCLEGILEGSVRNSLWRPAPFKCPTCRKETSATGINS
B4: TRAF5 RING domain (UniProt O00463); chain FVERLEERYKCAFCHSVLHNPHQTGCGHRFCQHCILSLRELNTVPICPVDKEVIKSQEVFK
B5: RNF208 RING domain (UniProt Q9H0X6); chain SSAAAGEPLECPTCGHSYNVTQRRPRVLSCLHSVCEQCLQILYESCPKYKFISCPTCRRETVLFTDYG
B6: RC3H1 RING domain (UniProt Q5TC82); chain QAPQWTDFLSCPICTQTFDETIRKPISLGCGHTVCKMCLNKLHRKACPFDQTTINTDIELL
B7: TRIM5 RING domain (UniProt Q9C035); chain ILVNVKEEVTCPICLELLTQPLSLDCGHSFCQACLTANHKKSMLDKGESSCPVCRISYQPENIRP
Construct (chain): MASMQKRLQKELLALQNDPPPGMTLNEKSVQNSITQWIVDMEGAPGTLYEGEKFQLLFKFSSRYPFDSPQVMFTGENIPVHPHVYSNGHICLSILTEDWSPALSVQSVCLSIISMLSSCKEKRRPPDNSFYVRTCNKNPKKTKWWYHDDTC
Under “lacZ reporter activity”, `B1 (NEURL1 RING domain)` is recorded as 3880.
Under “lacZ reporter activity”, `B2 (RNF111 RING domain)` is recorded as 3720.
`QVDKAVFHMQSVKCLKCQEQKRAVLPCQHAALCELCAEGSECPICQPGRAHTLQS (UNK RING domain (UniProt Q9C0B0))` — result for “lacZ reporter activity”: 0.
`B3 (TRIM13 RING domain)`: “lacZ reporter activity” 0.
`B4 (TRAF5 RING domain)` — result for “lacZ reporter activity”: 0.
Under “lacZ reporter activity”, `B5 (RNF208 RING domain)` is recorded as 0.
`B6 (RC3H1 RING domain)` — result for “lacZ reporter activity”: 0.
Under “lacZ reporter activity”, `B7 (TRIM5 RING domain)` is recorded as 0.
For `PAELEVQASECVVCLEREAQMIFLNCGHVCCCQQCCQPLRTCPLCRQDIAQRLRIY (LRSAM1 RING domain (UniProt Q6UWE0))`, “lacZ reporter activity” read 0.

Set 3
Target: Transcription factor Sp1 (SP1, Homo sapiens, UniProt P08047, residues 1-785, full length assumed)
Sequence of UniProt P08047 (whole entry, looked up): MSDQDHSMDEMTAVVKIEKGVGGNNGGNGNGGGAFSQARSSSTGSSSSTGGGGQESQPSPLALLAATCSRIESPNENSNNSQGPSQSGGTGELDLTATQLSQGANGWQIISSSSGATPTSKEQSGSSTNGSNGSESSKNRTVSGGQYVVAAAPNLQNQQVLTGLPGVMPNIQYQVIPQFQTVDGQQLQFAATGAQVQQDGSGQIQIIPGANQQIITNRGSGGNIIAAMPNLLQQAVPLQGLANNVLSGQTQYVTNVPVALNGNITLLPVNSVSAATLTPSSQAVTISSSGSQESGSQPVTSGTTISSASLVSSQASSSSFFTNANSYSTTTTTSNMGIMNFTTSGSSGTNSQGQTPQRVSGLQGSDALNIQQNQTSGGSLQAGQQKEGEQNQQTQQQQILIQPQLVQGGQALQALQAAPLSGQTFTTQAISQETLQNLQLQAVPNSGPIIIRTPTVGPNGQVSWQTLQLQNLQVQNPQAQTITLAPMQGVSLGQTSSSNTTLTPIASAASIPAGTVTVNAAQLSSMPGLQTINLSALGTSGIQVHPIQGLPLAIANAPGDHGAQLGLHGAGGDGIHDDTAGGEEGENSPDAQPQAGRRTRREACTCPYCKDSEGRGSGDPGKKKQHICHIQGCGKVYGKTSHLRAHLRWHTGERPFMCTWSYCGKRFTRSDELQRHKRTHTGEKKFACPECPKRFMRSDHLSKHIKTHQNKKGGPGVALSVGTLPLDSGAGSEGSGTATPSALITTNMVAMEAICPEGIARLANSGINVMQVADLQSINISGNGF
Method: protein-binding microarray
Form: double-stranded DNA, one strand shown
Sample: in vitro
Concentration: not given
Setting: k-mer, scored over probes, only values ≥0.25
Direction: higher = stronger binding
With `AGTGGGCG` the E-score was 0.45.
`ATGGGGTG` gave an E-score of 0.368.
With `AAATAGGG` the E-score was 0.282.
The E-score of `GGGCGTGA` is reported as 0.277.
For `GGTTATAA`, the E-score was 0.281.
For `AACCCACT`, the E-score was 0.254.
For `GCCCCTCC`, the E-score was 0.488.
The E-score of `AAACATAC` is reported as 0.28.

Set 4
Target: HLA class I histocompatibility antigen, A alpha chain, allele A*80:01 (Homo sapiens, UniProt P04439)
Read-out: peptide-MHC binding
Form: peptide
Concentration: concentration not given
For `LTAPCDIYV`, binding read “inactive”.
`FGAAVSLLF`: binding “inactive”.
Under binding, `VVSEIDLQW` is recorded as “inactive”.

For quick reference, copied from above (set 3):
The E-score of `GGGCGTGA` is reported as 0.277.
With `AGTGGGCG` the E-score was 0.45.
The E-score of `AAACATAC` is reported as 0.28.
For `GGTTATAA`, the E-score was 0.281.
